{"data": "Measured values pooled from the literature", "note": "Numbered parts are unrelated; each lists some results of a single study. Substitutions count along the parent as printed."}
{"data": "Block 1", "target": "TAR DNA-binding protein 43, full length, His tag (TARDBP, Homo sapiens, UniProt Q13148, residues 1-414)", "technique": "RNA Bind-n-Seq", "form": "RNA", "medium": "in vitro", "tested at": "20 nM", "setting": "6-mer, flanks averaged, single round", "with": "150 mM KCl", "relative to": "input library", "reading": "higher = stronger binding"}
{"Strand": "CGUUGG", "6-mer enrichment (R)": 1.16}
{"Strand": "CACUUA", "6-mer enrichment (R)": 0.579}
{"Strand": "CGGGGG", "6-mer enrichment (R)": 7.89}
{"Strand": "CACAGU", "6-mer enrichment (R)": 0.674}
{"Strand": "UCUGUG", "6-mer enrichment (R)": 0.852}
{"Strand": "CAUAGU", "6-mer enrichment (R)": 0.631}
{"Strand": "UAUUAG", "6-mer enrichment (R)": 0.662}
{"Strand": "AACACU", "6-mer enrichment (R)": 0.605}
{"data": "Block 2", "target": "UDP-N-acetylglucosamine--peptide N-acetylglucosaminyltransferase 110 kDa subunit (OGT, Homo sapiens, UniProt O15294)", "effect on": "binding", "technique": "phage display NGS", "form": "peptide", "tested at": "concentration not given", "setting": "normalized abundance", "relative to": "input library", "chain of UniProt O15294 (whole entry, looked up)": "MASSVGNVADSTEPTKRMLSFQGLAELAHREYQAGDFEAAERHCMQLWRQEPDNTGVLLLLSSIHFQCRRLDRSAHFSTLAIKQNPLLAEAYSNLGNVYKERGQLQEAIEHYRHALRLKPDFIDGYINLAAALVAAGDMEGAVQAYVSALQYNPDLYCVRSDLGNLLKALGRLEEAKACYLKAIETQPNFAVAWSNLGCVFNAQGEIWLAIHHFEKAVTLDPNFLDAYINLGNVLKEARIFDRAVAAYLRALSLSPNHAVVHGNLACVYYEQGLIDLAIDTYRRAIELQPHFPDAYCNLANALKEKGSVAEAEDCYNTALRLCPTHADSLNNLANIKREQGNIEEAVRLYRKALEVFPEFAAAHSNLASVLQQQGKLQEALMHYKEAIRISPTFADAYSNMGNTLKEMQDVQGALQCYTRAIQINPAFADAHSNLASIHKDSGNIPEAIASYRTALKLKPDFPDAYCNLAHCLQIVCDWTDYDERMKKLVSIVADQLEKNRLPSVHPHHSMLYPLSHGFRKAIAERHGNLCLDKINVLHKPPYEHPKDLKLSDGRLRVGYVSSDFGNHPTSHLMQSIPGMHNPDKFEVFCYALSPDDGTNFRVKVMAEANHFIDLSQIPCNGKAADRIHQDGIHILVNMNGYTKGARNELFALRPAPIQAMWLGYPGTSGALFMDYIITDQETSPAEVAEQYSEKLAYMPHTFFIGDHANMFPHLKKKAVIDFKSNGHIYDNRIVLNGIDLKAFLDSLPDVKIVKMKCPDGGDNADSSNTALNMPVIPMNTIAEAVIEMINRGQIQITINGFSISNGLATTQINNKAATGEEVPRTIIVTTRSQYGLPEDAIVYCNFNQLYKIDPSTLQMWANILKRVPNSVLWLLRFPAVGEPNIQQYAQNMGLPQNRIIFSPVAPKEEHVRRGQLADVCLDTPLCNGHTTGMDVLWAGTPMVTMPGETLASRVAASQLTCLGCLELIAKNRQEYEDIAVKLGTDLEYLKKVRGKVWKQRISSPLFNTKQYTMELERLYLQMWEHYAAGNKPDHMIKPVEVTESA"}
{"Molecule": "QDLEQHMFMHHHDKH", "enrichment fold change": 6.09}
{"Molecule": "QLYPVDKHHTHHHVT", "enrichment fold change": 8.39}
{"Molecule": "NFLPQYQITAGAYET", "enrichment fold change": 13.1}
{"Molecule": "AFVPPWAPMYQIVMG", "enrichment fold change": 8.47}
{"Molecule": "WSAQPNLYPVYQIIV", "enrichment fold change": 11.8}
{"Molecule": "ASPSYVPHYQMVYKI", "enrichment fold change": 13.4}
{"data": "Block 3", "target": "Probable WRKY transcription factor 33, C-terminal DNA-binding domain (WRKY33, Arabidopsis thaliana, UniProt Q8S8P5, residues 346-449)", "technique": "DNA-protein interaction ELISA", "form": "double-stranded DNA, one strand shown", "medium": "in vitro, bacterial lysate", "tested at": "not given", "setting": "whole dsDNA probe, crude lysate protein", "relative to": "highest signal in screen", "reading": "higher = stronger binding", "Target sequence (chain)": "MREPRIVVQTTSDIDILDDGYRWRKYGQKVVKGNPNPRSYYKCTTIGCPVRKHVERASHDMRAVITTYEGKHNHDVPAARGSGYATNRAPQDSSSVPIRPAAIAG"}
{"Strand": "AAAAAAAGGTTTGGGCTTCACGTTATAAAA", "relative absorbance": "34.9 % of maximum"}
{"Strand": "AAAAAAAACTCCCATACTACAACCGAAAAA", "relative absorbance": "44.3 % of maximum"}
{"Strand": "AAAAAATCCCTGCTCCCCTGGTTCCTAAAA", "relative absorbance": "40.2 % of maximum"}
{"Strand": "AAAAAATACGTCTACGTGGTTGTCGTAAAA", "relative absorbance": "74.4 % of maximum"}
{"Strand": "AAAAAACCCATCCTTCGTTCCATCGTAAAA", "relative absorbance": "33.3 % of maximum"}
{"Strand": "AAAAAATGCAGACCTTCAGCTGGGTAAAAA", "relative absorbance": "27.1 % of maximum"}
{"Strand": "AAAAAATCTGTTCTCGTTTCCCCTTCAAAA", "relative absorbance": "32.1 % of maximum"}
{"Strand": "AAAAAAGCTCGTCTCCGCCTCCTGCTAAAA", "relative absorbance": "71.4 % of maximum"}
{"data": "Block 4", "target": "CCND2, cyclin fold, Cln2 fusion (human)", "technique": "yeast growth competition, sequencing", "medium": "yeast", "setting": "weak parent motif", "relative to": "not given", "reading": "higher = stronger binding", "parent": "viral docking peptide; KGVKRKLFAEDSS; partner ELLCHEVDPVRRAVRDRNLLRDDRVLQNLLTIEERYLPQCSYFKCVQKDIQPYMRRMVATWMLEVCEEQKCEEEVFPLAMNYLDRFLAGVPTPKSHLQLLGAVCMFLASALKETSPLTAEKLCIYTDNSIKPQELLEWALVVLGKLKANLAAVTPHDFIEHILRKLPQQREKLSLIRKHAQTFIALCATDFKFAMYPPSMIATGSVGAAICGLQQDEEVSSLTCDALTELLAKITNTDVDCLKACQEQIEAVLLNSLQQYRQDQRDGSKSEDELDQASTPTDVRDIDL"}
{"Change": "KGVKRKLFAEGSS [D11G]", "normalised enrichment score": 0.264}
{"Change": "KGVKGKLFAEDSS [R5G]", "normalised enrichment score": -0.27}
{"Change": "KGVKRKLFAEDFS [S12F]", "normalised enrichment score": 0.0696}
{"Change": "KGIKRKLFAEDSS [V3I]", "normalised enrichment score": 0.152}
{"Change": "KGDKRKLFAEDSS [V3D]", "normalised enrichment score": -0.351}
{"Change": "KGVKRKLFANDSS [E10N]", "normalised enrichment score": -0.471}
{"Change": "KGVKRKLFALDSS [E10L]", "normalised enrichment score": 0.00779}
{"Change": "KGVKVKLFAEDSS [R5V]", "normalised enrichment score": 0.0299}
{"Change": "KGVKRKLFAEDNS [S12N]", "normalised enrichment score": 0.0538}
{"Change": "KPVKRKLFAEDSS [G2P]", "normalised enrichment score": 0.523}
{"Change": "KGVKRKLFAEDPS [S12P]", "normalised enrichment score": 0.542}
{"Change": "KGVKNKLFAEDSS [R5N]", "normalised enrichment score": -0.118}
{"Change": "KGVKRKLFAEDHS [S12H]", "normalised enrichment score": -0.245}
{"Change": "KGVKRKLFAIDSS [E10I]", "normalised enrichment score": -0.0403}
{"Change": "KGPKRKLFAEDSS [V3P]", "normalised enrichment score": 0.327}
{"Change": "KMVKRKLFAEDSS [G2M]", "normalised enrichment score": 0.391}
{"Change": "KGVKRKLVAEDSS [F8V]", "normalised enrichment score": 0.134}
{"Change": "KGVKRKLFAESSS [D11S]", "normalised enrichment score": 0.398}
{"Change": "KGVKRKLFPEDSS [A9P]", "normalised enrichment score": -0.0715}
{"data": "Mixed results", "technique": "cross-linking MS"}
{"Substance": "PSMD9 (Homo sapiens, UniProt O00233)", "partner": "PSMC3 (Homo sapiens, UniProt P17980)", "setting": "hits only", "measurement": "interaction screen", "result": "cross-linked"}
{"Substance": "COX7A2L (Homo sapiens, UniProt O14548)", "partner": "UQCRC1 (Homo sapiens, UniProt P31930)", "medium": "cell fractions", "with": "DMTMM", "measurement": "cross-linked residues", "result": "K27 to E171"}
{"Substance": "PNN (Homo sapiens, UniProt Q9H307)", "partner": "ACIN1 (Homo sapiens, UniProt Q9UKV3)", "medium": "cell fractions", "with": "DSSO", "measurement": "cross-linked residues", "result": "K157 to K1073"}
{"Substance": "RPRD2 (Homo sapiens, UniProt Q5VT52)", "partner": "PFDN2 (Homo sapiens, UniProt Q9UHV9)", "medium": "cell fractions", "with": "DSSO", "measurement": "cross-linked residues", "result": "T216 to K113"}
{"note": "Excerpt of the above (block 4):"}
{"Change": "KGVKVKLFAEDSS [R5V]", "normalised enrichment score": 0.0299}
{"Change": "KGVKRKLFAEDNS [S12N]", "normalised enrichment score": 0.0538}
{"Change": "KPVKRKLFAEDSS [G2P]", "normalised enrichment score": 0.523}
{"Change": "KGVKRKLFAEDPS [S12P]", "normalised enrichment score": 0.542}
{"Change": "KGVKNKLFAEDSS [R5N]", "normalised enrichment score": -0.118}
